# Published values gathered from unrelated publications.
# Compare with care: the assays were run in different laboratories. ± gives the spread as reported.
# GLP1R: Glucagon-like peptide 1 receptor (GLP1R, Homo sapiens, UniProt P43220)
# Chain of UniProt P43220 (whole entry, looked up): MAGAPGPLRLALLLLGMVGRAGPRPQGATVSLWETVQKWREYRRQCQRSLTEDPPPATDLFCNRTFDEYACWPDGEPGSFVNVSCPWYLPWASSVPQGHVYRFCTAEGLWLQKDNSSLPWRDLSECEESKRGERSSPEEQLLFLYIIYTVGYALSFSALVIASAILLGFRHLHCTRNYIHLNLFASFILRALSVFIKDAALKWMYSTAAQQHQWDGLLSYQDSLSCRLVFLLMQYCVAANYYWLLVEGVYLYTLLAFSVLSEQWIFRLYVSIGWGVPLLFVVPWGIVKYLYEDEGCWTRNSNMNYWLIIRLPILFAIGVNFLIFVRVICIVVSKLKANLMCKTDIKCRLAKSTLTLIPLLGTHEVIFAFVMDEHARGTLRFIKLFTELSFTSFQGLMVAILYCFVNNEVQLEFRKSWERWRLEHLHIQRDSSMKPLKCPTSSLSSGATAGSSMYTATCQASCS
# Chain of UniProt P10275 (whole entry, looked up): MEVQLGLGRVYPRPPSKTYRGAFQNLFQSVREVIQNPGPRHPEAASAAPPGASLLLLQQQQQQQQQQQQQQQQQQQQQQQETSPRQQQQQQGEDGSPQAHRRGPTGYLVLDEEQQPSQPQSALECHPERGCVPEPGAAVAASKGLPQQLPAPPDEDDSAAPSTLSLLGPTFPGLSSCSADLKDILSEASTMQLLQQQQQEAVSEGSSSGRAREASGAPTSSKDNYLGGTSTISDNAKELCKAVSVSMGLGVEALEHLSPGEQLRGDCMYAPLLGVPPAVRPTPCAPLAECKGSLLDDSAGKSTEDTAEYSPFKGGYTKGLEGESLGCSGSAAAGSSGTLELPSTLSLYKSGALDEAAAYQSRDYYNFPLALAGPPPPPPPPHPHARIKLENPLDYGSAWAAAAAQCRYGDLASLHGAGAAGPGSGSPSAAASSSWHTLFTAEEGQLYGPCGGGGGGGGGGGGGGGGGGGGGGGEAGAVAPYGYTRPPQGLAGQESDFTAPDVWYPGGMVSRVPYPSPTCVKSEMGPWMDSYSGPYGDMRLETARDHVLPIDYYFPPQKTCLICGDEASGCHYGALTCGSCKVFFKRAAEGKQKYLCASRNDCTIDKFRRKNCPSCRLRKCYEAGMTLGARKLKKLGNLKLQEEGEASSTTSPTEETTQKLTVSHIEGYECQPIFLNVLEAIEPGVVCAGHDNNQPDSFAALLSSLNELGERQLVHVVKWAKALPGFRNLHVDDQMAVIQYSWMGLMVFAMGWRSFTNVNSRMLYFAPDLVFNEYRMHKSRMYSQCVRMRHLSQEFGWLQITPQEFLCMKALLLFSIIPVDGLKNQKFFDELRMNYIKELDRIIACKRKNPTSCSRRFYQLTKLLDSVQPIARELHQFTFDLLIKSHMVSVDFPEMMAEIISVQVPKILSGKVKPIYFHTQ
# Chain of UniProt P17931 (whole entry, unmodified, looked up): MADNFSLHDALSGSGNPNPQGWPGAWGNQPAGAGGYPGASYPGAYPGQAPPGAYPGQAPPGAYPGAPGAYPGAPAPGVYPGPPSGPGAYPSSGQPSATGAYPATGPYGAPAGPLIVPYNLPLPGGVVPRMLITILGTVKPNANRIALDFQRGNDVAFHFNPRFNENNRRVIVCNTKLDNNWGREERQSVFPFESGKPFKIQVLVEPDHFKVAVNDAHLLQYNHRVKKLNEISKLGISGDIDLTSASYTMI
# Chain of UniProt P45983 (whole entry, looked up): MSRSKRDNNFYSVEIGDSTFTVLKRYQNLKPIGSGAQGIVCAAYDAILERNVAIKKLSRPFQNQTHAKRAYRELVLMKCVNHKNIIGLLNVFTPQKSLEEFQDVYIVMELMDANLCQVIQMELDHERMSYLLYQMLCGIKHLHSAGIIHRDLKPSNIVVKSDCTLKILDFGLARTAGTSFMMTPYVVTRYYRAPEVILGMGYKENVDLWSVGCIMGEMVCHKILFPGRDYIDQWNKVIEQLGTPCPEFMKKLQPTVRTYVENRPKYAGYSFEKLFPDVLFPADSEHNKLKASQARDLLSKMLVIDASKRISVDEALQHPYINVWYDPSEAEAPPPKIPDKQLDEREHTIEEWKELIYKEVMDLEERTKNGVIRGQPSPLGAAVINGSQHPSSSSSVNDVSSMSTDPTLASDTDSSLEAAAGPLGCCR
SMILES,target,assay,test system,conditions,scale,endpoint,result
CC(C)CC(NC(=O)C(NC(=O)NC(C(=O)O)C(C)C)C1CCNC(=N)N1)C(=O)NCCCNC(C(=O)O)C(OC1OC(CN)C(O)C1O)C1OC(n2ccc(=O)[nH]c2=O)C(O)C1O (stereo not drawn),"mraY (Aquifex aeolicus, UniProt O66465, F262W)",ITC,,"concentration not given, F262W mutant",,binding stoichiometry,0.81 ± 0.03 sites
[N-]=[N+]=N[C@H]1C[C@H](n2cnc3c(N)nc(N)nc32)O[C@@H]1COP(=O)(O)OP(=O)(O)OP(=O)(O)O,"TERT (Homo sapiens, UniProt O14746)","DNA polymerase activity, inhibitor",,,baseline: Ki over Km of natural dNTP,Ki/Km ratio,0.27
CC[C@H](C)[C@H](NC(=O)[C@H](CC(N)=O)NC(=O)[C@H](CC(N)=O)NC(=O)[C@H](CCCNC(=N)N)NC(=O)[C@H](CC(N)=O)NC(=O)[C@H](CCCNC(=N)N)NC(=O)[C@H](CCCCN)NC(=O)[C@@H](NC(=O)[C@H](CC(N)=O)NC(=O)[C@H](CCSC)NC(=O)[C@H](CC(C)C)NC(=O)[C@H](Cc1c[nH]c2ccccc12)NC(=O)[C@@H]1CSCc2ccc(cc2)-c2ccc(cc2)CSC[C@@H](NC(=O)[C@H](CO)NC(=O)[C@H](CC(=O)O)NC(=O)[C@H](CC(C)C)NC(=O)[C@H](Cc2ccc(O)cc2)NC(=O)[C@H](CCCCN)NC(=O)[C@H](CO)NC(=O)[C@H](Cc2ccc(O)cc2)NC(=O)[C@H](CC(=O)O)NC(=O)[C@H](CO)NC(=O)[C@@H](NC(=O)[C@H](Cc2ccccc2)NC(=O)[C@@H](NC(=O)CNC(=O)[C@H](CCC(N)=O)NC(=O)[C@@H](CO)NC(=O)[C@@H](N)Cc2c[nH]cn2)[C@@H](C)O)[C@@H](C)O)C(=O)N[C@@H](CCCNC(=N)N)C(=O)N[C@@H](C)C(=O)N[C@@H](CCC(N)=O)C(=O)N[C@@H](CC(=O)O)C(=O)N[C@@H](Cc2ccccc2)C(=O)N[C@@H](C(C)C)C(=O)N1)[C@@H](C)O)C(=O)N[C@@H](C)C(N)=O,GLP1R,"CRE luciferase reporter, agonist",,concentration not given,baseline: linear counterpart,activity increase,2 fold
C=C1C[C@]2(C(=O)OC)C=C(C(=O)Nc3cccc(C(=O)Nc4ccc(Nc5nccc(-c6cccnc6)n5)c(C)c4)c3)C(=O)[C@H]1C2,"MAPK8 (Homo sapiens, UniProt P45983)","binding, SPR",,"15, 40, 70 nM, parallel kinetic model",,k3,0.0063 s⁻¹
CC(C)C[C@H](NC(=O)CN)C(=O)N[C@@H](CO)C(=O)N[C@@H](Cc1ccccc1)C(=O)N[C@@H](C)C(=O)N[C@@H](Cc1ccccc1)C(=O)N1CCC[C@H]1C(=O)N[C@@H](C)C(=O)N[C@@H](CCCCN)C(=O)N[C@@H](CC(=O)O)C(=O)N[C@@H](C)C(=O)N[C@@H](CCC(=O)O)C(=O)N[C@@H](CC(N)=O)C(=O)N[C@@H](C)C(=O)N[C@@H](CO)C(=O)N[C@@H](CO)C(=O)N1CCC[C@H]1C(=O)N[C@H](C(=O)O)C(C)C,"Peptide cyclase 1 (Gypsophila vaccaria, UniProt R4P353, S562A)",ITC,,"pH 8.0, 25 °C",,–TΔS,-2.19 kcal/mol
COc1ccc(-c2cc(C(F)(F)F)nc(NCc3ccccc3)n2)cc1,GLP1R,"cAMP accumulation, positive allosteric modulator",HEK-293T overexpressing GLP1R,added: EC20 GLP-1,,Emax,29 ± 8.6%
C#Cc1ccc2c(=O)[nH]nc(Cc3ccc(F)c(C(=O)N4CCN(C(=O)C=C)CC4)c3)c2c1,"PARP16 (Homo sapiens, UniProt Q8N5Y8)","covalent labeling, click chemistry in-gel fluorescence",HAP1,2 h,,saturating concentration,300 nM
COc1c(F)c(F)c(C(=O)N[C@H]2[C@@H](O)[C@@H](CO)O[C@@H](S[C@@H]3O[C@H](CO)[C@H](O)[C@H](NC(=O)c4c(F)c(F)c(OC)c(F)c4F)[C@H]3O)[C@@H]2O)c(F)c1F,"Galectin-3 (LGALS3, Homo sapiens, UniProt P17931)",ITC,,"pH 7.2, 4% DMSO",,ΔG,-8.56 ± 0.12 kcal/mol
Nc1ncnc2c1ncn2[C@@H]1O[C@H](CO)[C@@H](O[C@H]2O[C@H](CO)[C@@H](OP(=O)(O)O)[C@H](OP(=O)(O)O)[C@H]2O)[C@H]1O,"Inositol 1,4,5-trisphosphate-gated calcium channel ITPR1, N-terminal region (Itpr1, Rattus norvegicus, UniProt P29994, del318-332)",[3H]IP3 competition binding,N-terminal fragment,cytosol-like medium,,Hill coefficient,0.9 ± 0.4
CCCCCCSc1nc2c([nH]1)c(=S)n(C)c(=S)n2C,"Androgen receptor (AR, Homo sapiens, UniProt P10275)","reporter gene, antagonist, PSA-luciferase",HeLa-A6,"10 µM, 24 h, added: 5 nM dihydrotestosterone",baseline: maximal activity,remaining activity,89%
[11CH3]Nc1ccc(-c2nc3ccc(O)cc3o2)cn1,"APP (Homo sapiens, UniProt P05067)","binding, PET","Alzheimer's disease patients, posterior cingulate cortex",unit not given,baseline: control subjects,effect size of DVR,4.49
CCCCCCCCCCCCCCCC(=O)NCCCCCCNC(=O)C(CCCCNC(=O)CCN1C(=O)CC(SC[C@H](NC(=O)[C@H](CCCNC(=N)N)NC(=O)CNC(=O)[C@H](CCCCN)NC(=O)[C@@H](NC(=O)[C@H](CC(C)C)NC(=O)[C@H](Cc2c[nH]c3ccccc23)NC(=O)[C@H](C)NC(=O)[C@@H](NC(=O)[C@H](Cc2ccccc2)NC(=O)[C@H](CCC(=O)O)NC(=O)[C@H](CCCCN)NC(=O)[C@H](C)NC(=O)[C@H](C)NC(=O)[C@H](CCC(N)=O)NC(=O)CNC(=O)[C@H](CCC(=O)O)NC(=O)[C@H](CC(C)C)NC(=O)[C@H](Cc2ccc(O)cc2)NC(=O)[C@H](CO)NC(=O)[C@H](CO)NC(=O)[C@@H](NC(=O)[C@H](CC(=O)O)NC(=O)[C@H](CO)NC(=O)[C@@H](NC(=O)[C@H](Cc2ccccc2)NC(=O)[C@@H](NC(=O)CNC(=O)[C@H](CCC(=O)O)NC(=O)CNC(=O)[C@@H](N)Cc2c[nH]cn2)[C@@H](C)O)[C@@H](C)O)C(C)C)[C@@H](C)CC)C(C)C)C(N)=O)C1=O)NC(=O)CCN1C(=O)CC(SC[C@H](NC(=O)[C@H](CCCNC(=N)N)NC(=O)CNC(=O)[C@H](CCCCN)NC(=O)[C@@H](NC(=O)[C@H](CC(C)C)NC(=O)[C@H](Cc2c[nH]c3ccccc23)NC(=O)[C@H](C)NC(=O)[C@@H](NC(=O)[C@H](Cc2ccccc2)NC(=O)[C@H](CCC(=O)O)NC(=O)[C@H](CCCCN)NC(=O)[C@H](C)NC(=O)[C@H](C)NC(=O)[C@H](CCC(N)=O)NC(=O)CNC(=O)[C@H](CCC(=O)O)NC(=O)[C@H](CC(C)C)NC(=O)[C@H](Cc2ccc(O)cc2)NC(=O)[C@H](CO)NC(=O)[C@H](CO)NC(=O)[C@@H](NC(=O)[C@H](CC(=O)O)NC(=O)[C@H](CO)NC(=O)[C@@H](NC(=O)[C@H](Cc2ccccc2)NC(=O)[C@@H](NC(=O)CNC(=O)[C@H](CCC(=O)O)NC(=O)CNC(=O)[C@@H](N)Cc2c[nH]cn2)[C@@H](C)O)[C@@H](C)O)C(C)C)[C@@H](C)CC)C(C)C)C(N)=O)C1=O (stereo partly drawn),GLP1R,"cAMP, agonist",HEK293 expressing GLP1R,,baseline: GLP-1,potency ratio,9.5 fold

# For quick reference, copied from above:
SMILES,target,assay,test system,conditions,scale,endpoint,result
COc1ccc(-c2cc(C(F)(F)F)nc(NCc3ccccc3)n2)cc1,GLP1R,"cAMP accumulation, positive allosteric modulator",HEK-293T overexpressing GLP1R,added: EC20 GLP-1,,Emax,29 ± 8.6%
C=C1C[C@]2(C(=O)OC)C=C(C(=O)Nc3cccc(C(=O)Nc4ccc(Nc5nccc(-c6cccnc6)n5)c(C)c4)c3)C(=O)[C@H]1C2,"MAPK8 (Homo sapiens, UniProt P45983)","binding, SPR",,"15, 40, 70 nM, parallel kinetic model",,k3,0.0063 s⁻¹
